Assay results collected from several papers.
Parts stem from different laboratories: compare values within a part only.
Chain of UniProt P07948 (whole entry, looked up): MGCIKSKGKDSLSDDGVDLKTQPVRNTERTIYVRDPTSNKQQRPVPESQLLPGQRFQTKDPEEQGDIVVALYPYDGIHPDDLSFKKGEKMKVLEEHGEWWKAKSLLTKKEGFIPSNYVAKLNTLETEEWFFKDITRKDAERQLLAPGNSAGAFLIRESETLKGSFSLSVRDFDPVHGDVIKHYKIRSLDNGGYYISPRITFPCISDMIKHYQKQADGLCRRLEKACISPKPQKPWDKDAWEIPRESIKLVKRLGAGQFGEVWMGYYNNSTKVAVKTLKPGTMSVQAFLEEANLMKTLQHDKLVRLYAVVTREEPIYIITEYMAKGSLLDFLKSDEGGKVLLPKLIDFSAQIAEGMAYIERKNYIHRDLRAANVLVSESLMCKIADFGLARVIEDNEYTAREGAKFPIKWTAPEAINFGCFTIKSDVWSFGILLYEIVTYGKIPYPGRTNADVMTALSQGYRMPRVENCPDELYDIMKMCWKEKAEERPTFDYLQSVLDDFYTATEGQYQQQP
Chain of UniProt P35968 (whole entry, looked up): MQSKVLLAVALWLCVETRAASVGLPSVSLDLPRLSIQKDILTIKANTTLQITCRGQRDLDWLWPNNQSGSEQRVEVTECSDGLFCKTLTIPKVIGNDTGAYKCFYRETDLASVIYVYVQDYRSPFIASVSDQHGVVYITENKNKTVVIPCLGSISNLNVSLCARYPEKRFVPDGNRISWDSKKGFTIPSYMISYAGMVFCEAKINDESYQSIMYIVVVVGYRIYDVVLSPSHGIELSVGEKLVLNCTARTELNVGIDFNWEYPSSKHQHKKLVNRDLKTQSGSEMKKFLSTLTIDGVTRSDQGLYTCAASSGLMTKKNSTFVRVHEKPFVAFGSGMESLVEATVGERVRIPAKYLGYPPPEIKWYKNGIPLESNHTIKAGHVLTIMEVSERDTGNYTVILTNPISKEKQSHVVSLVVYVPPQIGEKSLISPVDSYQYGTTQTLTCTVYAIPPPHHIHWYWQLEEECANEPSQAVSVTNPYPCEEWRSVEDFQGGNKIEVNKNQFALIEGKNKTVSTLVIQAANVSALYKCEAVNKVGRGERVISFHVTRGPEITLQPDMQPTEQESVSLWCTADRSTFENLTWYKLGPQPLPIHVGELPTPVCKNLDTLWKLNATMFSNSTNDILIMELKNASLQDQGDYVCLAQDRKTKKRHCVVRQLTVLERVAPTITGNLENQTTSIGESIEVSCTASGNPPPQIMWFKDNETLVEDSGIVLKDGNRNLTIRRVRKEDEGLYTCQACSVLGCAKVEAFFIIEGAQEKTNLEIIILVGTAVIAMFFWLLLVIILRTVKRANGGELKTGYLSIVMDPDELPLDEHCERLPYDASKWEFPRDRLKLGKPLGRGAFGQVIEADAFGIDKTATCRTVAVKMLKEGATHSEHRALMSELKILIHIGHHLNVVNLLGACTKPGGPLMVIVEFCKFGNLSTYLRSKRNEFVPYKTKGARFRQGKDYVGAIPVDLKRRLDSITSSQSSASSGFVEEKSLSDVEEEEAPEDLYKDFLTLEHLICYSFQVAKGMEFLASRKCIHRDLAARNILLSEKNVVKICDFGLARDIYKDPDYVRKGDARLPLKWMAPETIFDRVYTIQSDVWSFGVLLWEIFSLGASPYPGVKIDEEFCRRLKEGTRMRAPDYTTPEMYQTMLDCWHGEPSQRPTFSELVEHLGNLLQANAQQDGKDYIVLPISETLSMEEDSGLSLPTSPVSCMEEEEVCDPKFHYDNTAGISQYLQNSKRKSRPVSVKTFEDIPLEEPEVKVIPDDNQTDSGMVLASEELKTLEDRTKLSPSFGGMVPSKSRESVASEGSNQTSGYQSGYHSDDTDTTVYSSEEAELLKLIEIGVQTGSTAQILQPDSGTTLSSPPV
Chain of UniProt Q6XUX3 (whole entry, looked up): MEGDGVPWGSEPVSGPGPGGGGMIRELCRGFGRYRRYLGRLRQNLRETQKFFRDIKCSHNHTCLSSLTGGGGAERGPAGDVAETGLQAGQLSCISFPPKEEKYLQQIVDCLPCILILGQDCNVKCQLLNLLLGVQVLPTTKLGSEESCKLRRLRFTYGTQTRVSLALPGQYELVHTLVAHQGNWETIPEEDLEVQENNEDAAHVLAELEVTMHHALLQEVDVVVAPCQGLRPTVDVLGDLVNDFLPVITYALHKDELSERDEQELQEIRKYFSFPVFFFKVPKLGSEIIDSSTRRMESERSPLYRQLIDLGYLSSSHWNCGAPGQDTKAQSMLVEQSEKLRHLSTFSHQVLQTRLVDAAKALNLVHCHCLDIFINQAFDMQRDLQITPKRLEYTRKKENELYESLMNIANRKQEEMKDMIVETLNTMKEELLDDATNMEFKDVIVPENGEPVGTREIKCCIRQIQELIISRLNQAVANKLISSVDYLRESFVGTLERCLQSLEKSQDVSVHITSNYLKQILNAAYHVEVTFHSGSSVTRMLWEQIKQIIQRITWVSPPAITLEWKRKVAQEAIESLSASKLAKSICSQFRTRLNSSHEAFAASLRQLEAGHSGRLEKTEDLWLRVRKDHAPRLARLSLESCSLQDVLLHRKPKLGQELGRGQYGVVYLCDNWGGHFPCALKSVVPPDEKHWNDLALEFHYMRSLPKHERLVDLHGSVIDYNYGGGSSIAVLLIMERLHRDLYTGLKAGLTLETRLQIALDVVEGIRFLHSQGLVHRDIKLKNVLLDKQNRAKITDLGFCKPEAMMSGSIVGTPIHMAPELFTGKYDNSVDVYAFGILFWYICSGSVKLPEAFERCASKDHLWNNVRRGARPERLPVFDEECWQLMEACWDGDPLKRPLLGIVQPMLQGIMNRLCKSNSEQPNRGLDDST
Chain of UniProt P30291 (whole entry, looked up): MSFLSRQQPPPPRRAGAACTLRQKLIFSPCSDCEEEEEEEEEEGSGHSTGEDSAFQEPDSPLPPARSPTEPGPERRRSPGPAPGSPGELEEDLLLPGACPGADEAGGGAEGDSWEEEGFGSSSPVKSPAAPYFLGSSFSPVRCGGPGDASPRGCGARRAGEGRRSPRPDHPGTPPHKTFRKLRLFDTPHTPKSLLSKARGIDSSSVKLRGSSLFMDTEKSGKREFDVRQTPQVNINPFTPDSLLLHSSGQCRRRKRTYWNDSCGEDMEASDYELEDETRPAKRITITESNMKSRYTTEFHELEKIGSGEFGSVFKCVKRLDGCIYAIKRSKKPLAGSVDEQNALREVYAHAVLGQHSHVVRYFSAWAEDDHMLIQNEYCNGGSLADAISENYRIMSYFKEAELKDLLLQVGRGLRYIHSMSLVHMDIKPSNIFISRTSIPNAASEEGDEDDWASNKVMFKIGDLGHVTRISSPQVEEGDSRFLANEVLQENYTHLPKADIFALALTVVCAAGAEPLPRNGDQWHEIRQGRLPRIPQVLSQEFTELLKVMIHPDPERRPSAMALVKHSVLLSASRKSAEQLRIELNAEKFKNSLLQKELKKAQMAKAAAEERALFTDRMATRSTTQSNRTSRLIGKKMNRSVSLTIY
Chain of UniProt Q9BUB5 (whole entry, looked up): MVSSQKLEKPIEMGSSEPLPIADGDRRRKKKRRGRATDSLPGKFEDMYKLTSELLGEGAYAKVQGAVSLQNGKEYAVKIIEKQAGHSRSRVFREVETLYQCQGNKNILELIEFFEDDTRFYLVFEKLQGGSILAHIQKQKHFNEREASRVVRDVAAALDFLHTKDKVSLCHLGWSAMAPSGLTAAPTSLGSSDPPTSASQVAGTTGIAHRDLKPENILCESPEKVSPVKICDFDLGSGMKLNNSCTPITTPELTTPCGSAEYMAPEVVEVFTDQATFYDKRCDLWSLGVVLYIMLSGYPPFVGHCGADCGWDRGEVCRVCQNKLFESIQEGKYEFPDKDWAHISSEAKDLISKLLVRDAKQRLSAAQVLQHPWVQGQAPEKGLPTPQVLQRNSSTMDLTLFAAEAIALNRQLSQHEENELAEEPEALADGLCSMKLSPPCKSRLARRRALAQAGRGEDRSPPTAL
Chain of UniProt Q13153 (whole entry, looked up): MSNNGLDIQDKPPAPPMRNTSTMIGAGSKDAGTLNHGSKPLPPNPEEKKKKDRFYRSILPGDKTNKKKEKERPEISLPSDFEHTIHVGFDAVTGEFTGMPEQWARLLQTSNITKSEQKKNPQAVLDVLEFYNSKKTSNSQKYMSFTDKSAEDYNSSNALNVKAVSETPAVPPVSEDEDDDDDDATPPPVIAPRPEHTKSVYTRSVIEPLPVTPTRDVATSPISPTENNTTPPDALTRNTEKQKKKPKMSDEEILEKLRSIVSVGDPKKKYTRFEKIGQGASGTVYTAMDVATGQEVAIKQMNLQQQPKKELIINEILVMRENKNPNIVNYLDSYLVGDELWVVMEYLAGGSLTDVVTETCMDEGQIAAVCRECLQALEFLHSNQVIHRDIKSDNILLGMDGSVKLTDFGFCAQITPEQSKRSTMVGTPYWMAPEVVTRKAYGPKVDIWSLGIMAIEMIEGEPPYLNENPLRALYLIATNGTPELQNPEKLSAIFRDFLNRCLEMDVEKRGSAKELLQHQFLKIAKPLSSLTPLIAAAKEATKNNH

Series 1
Target: Calcium/calmodulin-dependent protein kinase type II subunit alpha (CAMK2A, Homo sapiens, UniProt Q9UQM7)
Chain of UniProt Q9UQM7 (whole entry, looked up): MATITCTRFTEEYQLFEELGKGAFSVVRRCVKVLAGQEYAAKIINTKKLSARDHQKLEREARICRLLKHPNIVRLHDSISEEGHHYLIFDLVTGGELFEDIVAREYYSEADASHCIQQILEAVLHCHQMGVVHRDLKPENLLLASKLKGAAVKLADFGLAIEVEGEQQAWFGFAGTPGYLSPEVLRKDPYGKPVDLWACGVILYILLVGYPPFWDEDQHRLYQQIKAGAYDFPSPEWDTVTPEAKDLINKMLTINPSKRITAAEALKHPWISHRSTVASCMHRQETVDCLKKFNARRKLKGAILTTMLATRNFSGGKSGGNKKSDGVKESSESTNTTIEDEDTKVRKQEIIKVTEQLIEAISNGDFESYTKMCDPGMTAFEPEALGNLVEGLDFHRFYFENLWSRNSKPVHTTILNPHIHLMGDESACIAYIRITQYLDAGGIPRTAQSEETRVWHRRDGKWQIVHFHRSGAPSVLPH
Effect on: enzyme activity
Action: inhibitor
Tested at: 10 µM
Quantity: inhibition
C=C(CC[C@@H](C(=O)O)[C@H]1[C@H](O)C[C@@]2(C)C3=CC[C@H]4C(C)(C)C(=O)CC[C@]4(C)C3=CC[C@]12C)C(C)C: 28%
C[C@@H]1C[C@H]2[C@@H]3CCC4=CC(=O)C=C[C@]4(C)[C@@]3(F)[C@@H](O)C[C@]2(C)[C@H]1C(=O)CO: -11%
O=C(OCc1ccccc1)c1ccccc1O: 14%
Cc1occc(=O)c1O: -22%
O=c1cc(-c2ccc(O)c(O)c2)oc2cc(O)cc(O)c12: 2%

Series 2
Structure (SMILES): COc1cccc(CNC(=O)c2nc3scc(COCc4ccc(C(=O)O)cc4)c3c(=O)[nH]2)c1
Effect on: cell-free assay
Technique: competition with immobilised ligand
Tested at: 1 µM
Quantity: remaining binding
LTK (Homo sapiens, UniProt P29376): 70.6%
CAMK2B (Homo sapiens, UniProt Q13554): 96.8%
PIK3C3 (Homo sapiens, UniProt Q8NEB9): 58.6%
MAP2K6 (Homo sapiens, UniProt P52564): 100%
LYN (Homo sapiens, UniProt P07948): 93.7%
MAPKAPK5 (Homo sapiens, UniProt Q8IW41): 93.8%
TNNI3K (Homo sapiens, UniProt Q59H18): 95.5%
FLT3 (Homo sapiens, UniProt P36888, K663Q): 93%
VRK2 (Homo sapiens, UniProt Q86Y07): 74.2%
DSTYK (Homo sapiens, UniProt Q6XUX3): 54.5%
Ribosomal protein S6 kinase alpha-3, C-terminal kinase domain (RPS6KA3, Homo sapiens, UniProt P51812): 56.5%
EGFR (Homo sapiens, UniProt P00533, L858R/T790M): 58.6%
STK39 (Homo sapiens, UniProt Q9UEW8): 100%
DDR2 (Homo sapiens, UniProt Q16832): 98.9%
KDR (Homo sapiens, UniProt P35968): 70%
PAK1 (Homo sapiens, UniProt Q13153): 100%
TEC (Homo sapiens, UniProt P42680): 86%
MKNK1 (Homo sapiens, UniProt Q9BUB5): 83.1%
RIPK4 (Homo sapiens, UniProt P57078): 67.1%
PRKX (Homo sapiens, UniProt P51817): 100%
PIP4K2B (Homo sapiens, UniProt P78356): 100%
SGK2 (Homo sapiens, UniProt Q9HBY8): 84.9%
GAK (Homo sapiens, UniProt O14976): 99.6%
KIT (Homo sapiens, UniProt P10721, D816H): 59%
NEK6 (Homo sapiens, UniProt Q9HC98): 71%

Series 3
Compound: O=C(Nc1cnn(-c2csc(C(=O)NC3COC3)c2)c1)Nc1ccccc1Cl
Tested at: 5 µM
Quantity: remaining activity
FRK (Homo sapiens, UniProt P42685); enzyme activity; baseline: untreated control: 96.7%
FGR (Homo sapiens, UniProt P09769); enzyme activity; baseline: untreated control: 89.2%
PAK6 (Homo sapiens, UniProt Q9NQU5); enzyme activity; baseline: untreated control: 127%
HCK (Homo sapiens, UniProt P08631); enzyme activity; baseline: untreated control: 89.7%
WEE1 (Homo sapiens, UniProt P30291); enzyme activity; baseline: untreated control: 122%
Tyrosine-protein kinase Lyn, isoform B (LYN, Homo sapiens, UniProt P07948); kinase activity, kinase panel profiling: 93.1%
DDR1 (Homo sapiens, UniProt Q08345); enzyme activity; baseline: untreated control: 95.9%
RPS6KA2 (Homo sapiens, UniProt Q15349); enzyme activity; baseline: untreated control: 102%

Series 4
Technique: PRP chromatography estimate
Sample: 1,9-decadiene/PBS
pH: 7.4
Quantity: logD
CC(C)C[C@@H]1NC(=O)[C@H](CCC(=O)N2CCCC2)NC(=O)[C@H](CC(C)C)NC(=O)[C@@H](Cc2cscn2)NC(=O)[C@H](CC(C)C)NC(=O)[C@@H](CC(C)C)NC(=O)[C@H](CC(C)C)NC1=O: 0.0148
CC(C)C[C@@H]1NC(=O)[C@H](C)NC(=O)[C@H](Cc2cscn2)NC(=O)[C@H](CC(C)C)NC(=O)[C@H](C(C)C)NC(=O)[C@H](CC(C)C)NC(=O)[C@@H](CC(C)C)NC1=O: -0.587
CC(C)C[C@@H]1NC(=O)[C@H](Cc2cscn2)NC(=O)[C@H](Cc2cscn2)NC(=O)[C@H](C)NC(=O)[C@@H](CCC(=O)N2CCCC2)NC(=O)[C@H](CC(C)C)NC(=O)[C@@H](CC(C)C)NC1=O: -2.29
CCOC(=O)[C@@H]1CSCC(=O)N[C@@H](CC)C(=O)N(C)[C@@H](C)C(=O)N[C@H](CC(C)C)C(=O)N2CCC[C@@H]2C(=O)N(CC(C)C)CC(=O)N[C@@H](CC(C)C)C(=O)N(C)[C@@H](C)C(=O)N[C@@H](CC(C)C)C(=O)N1C: 0.838
CC(C)C[C@@H]1NC(=O)[C@@H](C)NC(=O)[C@@H](CC(C)C)NC(=O)[C@H](C)NC(=O)[C@H](C(C)C)NC(=O)[C@H](CC(C)C)NC(=O)[C@@H](CC(C)C)NC1=O: -0.685
CC(C)C[C@@H]1NC(=O)[C@H](C)NC(=O)[C@@H](CC(C)C)NC(=O)[C@H](C)NC(=O)[C@H](CC(C)C)NC(=O)[C@H](CC(C)C)NC(=O)[C@H](C)NC1=O: -1.82
CC(C)C[C@@H]1NC(=O)[C@H](CC(C)C)NC(=O)[C@H](CC(C)C)NC(=O)[C@H](C(C)C)NC(=O)[C@@H](CCC(=O)N2CCCC2)NC(=O)[C@H](C)NC(=O)[C@H](C)NC1=O: -2.46
CC(C)C[C@@H]1NC(=O)[C@H](CC(C)C)NC(=O)[C@H](CC(C)C)NC(=O)[C@H](Cc2cscn2)NC(=O)[C@@H](Cc2cscn2)NC(=O)[C@@H](CC(C)C)NC(=O)[C@H](C)NC1=O: -0.989

Series 5
Cell line: A-375
Tested at: 100 µM
Time: 18 h
Quantity: viability
CC1(C)[C@@H]2CC[C@@]1(C)C(=O)C2: 91%
O=c1c(O[C@@H]2O[C@H](CO)[C@H](O)[C@H](O)[C@H]2O)c(-c2ccc(O)c(O)c2)oc2cc(O)cc(O)c12: 103%
C[C@@](Cc1ccc(O)c(O)c1)(NN)C(=O)O: 103%
O=C1CCc2cc(OCCCCc3nnnn3C3CCCCC3)ccc2N1: 76%
CN(Cc1cc(Br)cc(Br)c1N)C1CCCCC1: 11.1%

Some of these lines once more (series 5):
CC1(C)[C@@H]2CC[C@@]1(C)C(=O)C2: 91%
O=c1c(O[C@@H]2O[C@H](CO)[C@H](O)[C@H](O)[C@H]2O)c(-c2ccc(O)c(O)c2)oc2cc(O)cc(O)c12: 103%
C[C@@](Cc1ccc(O)c(O)c1)(NN)C(=O)O: 103%
O=C1CCc2cc(OCCCCc3nnnn3C3CCCCC3)ccc2N1: 76%
CN(Cc1cc(Br)cc(Br)c1N)C1CCCCC1: 11.1%
